Measured values from different studies.
Compare with care: the assays were run in different laboratories. Numbers after ± are the reported error.

SMILES = C#Cc1cccc(Nc2ncnc3cc(OCCOC)c(OCCOC)cc23)c1; tested on = human coronavirus OC43; assay = virus-induced cell killing; system = MRC-5; setting = maximum over 10 doses; quantity = maximum inhibition; value = 0%
SMILES = COc1cc(CCNC(C)c2ccccc2O)c(OC)cc1Br.Cl (stereo not drawn); tested on = 5-HT2C V102L mutant, human; assay = Gq dissociation, BRET; scale = relative to: wild-type 5-HT2C; quantity = fold gain in potency; value = 10 fold
SMILES = CC1CCCCN1CCCNC(=O)c1cc(Sc2ccc(Cl)cc2)nc2ccccc12 (stereo not drawn); tested on = Vero-E6; assay = CellTiter-Glo ATP; setting = concentration not given, 72 h, first round 5-point; scale = relative to: DMSO 0%, hyamine -100%, more negative, more toxic; quantity = cytotoxicity efficacy; value = 0%
SMILES = CC(C)[C@H](N)C(=O)N1CCC[C@H]1B(O)O; assay = GP-AMC cleavage; system = HEK-293T cell lysate; setting = 10 µM, added: GP-AMC 500 µM; quantity = inhibition; value = inhibited
SMILES = CC1(C)CCC2=C(O1)c1ccccc1C(=O)C2=O; tested on = human coronavirus OC43; assay = virus-induced cell killing; system = MRC-5; setting = screen; quantity = maximum inhibition; value = 17.9%
SMILES = N[C@@H](C[18F])C(=O)O; tested on = U-87 MG tumour model; system = host not given; setting = 5 min; quantity = maximum cellular uptake; value = 11.5 ± 1.1 %ID/100 µg protein
SMILES = COc1ccc2c(c1)[nH]c1c(C)nccc12; tested on = DU-145; assay = bisulfite pyrosequencing, measured: RASSF1A promoter CpG site 28; setting = concentration not given; scale = relative to: vehicle; quantity = methylation reduction; value = 0.71%
SMILES = CCNC(=O)c1noc(-c2cc(Cl)c(O)cc2O)c1-c1ccc(OC)cc1; tested on = human coronavirus OC43; assay = virus-induced cell killing; system = MRC-5; setting = screen; quantity = maximum inhibition; value = 32.2%
SMILES = COc1c(CCC[P+](c2ccccc2)(c2ccccc2)c2ccccc2)cc2c(c1OC)OCO2.[I-]; tested on = A549; assay = NCI60 SRB; quantity = LC50; value = > -4 log M
SMILES = CO[C@H]1C[C@@H]2CC[C@@H](C)[C@@](O)(O2)C(=O)C(=O)N2CCCC[C@H]2C(=O)O[C@H]([C@H](C)C[C@@H]2CC[C@@H](OC(=O)C(C)(CO)CO)[C@H](OC)C2)CC(=O)[C@H](C)/C=C(\C)[C@@H](O)[C@@H](OC)C(=O)[C@H](C)C[C@H](C)/C=C/C=C/C=C/1C; tested on = human coronavirus OC43; assay = virus-induced cell killing; system = MRC-5; setting = maximum over 10 doses; quantity = maximum inhibition; value = 0%
SMILES = CCCCN(C)CCNC(=O)c1cc(-c2ccc(Cl)s2)nc2ccccc12; tested on = Vero-E6; assay = CellTiter-Glo ATP; setting = concentration not given, 72 h, first round 5-point; scale = relative to: DMSO 0%, hyamine -100%, more negative, more toxic; quantity = cytotoxicity efficacy; value = -15.1%
SMILES = CCNCCc1c[nH]c2cccc(O)c12.CCNCCc1c[nH]c2cccc(O)c12.O=C(O)CCC(=O)O; system = C57BL/6J mice; setting = subcutaneous, 3 mg/kg; scale = relative to: pre-session; quantity = body temperature change; value = -0.2 ± 0.1 °C
SMILES = O=C(N[C@H](CO)[C@H](O)c1ccc([N+](=O)[O-])cc1)C(Cl)Cl; tested on = human coronavirus OC43; assay = virus-induced cell killing; system = MRC-5; setting = screen; quantity = maximum inhibition; value = 13.6%
SMILES = Cc1cn(-c2cc(NC(=O)c3ccc(C)c(Nc4nccc(-c5cccnc5)n4)c3)cc(C(F)(F)F)c2)cn1; system = Alzheimer's disease patients; setting = dose not given, baseline, group mean; scale = direction not given; quantity = CDR-SOB score; value = 5.2 ± 1.9
SMILES = COc1cc(CCC[P+](c2ccccc2)(c2ccccc2)c2ccccc2)c(OC)c2c1OCO2.[I-]; tested on = COLO 205; assay = SRB; quantity = LC50; value = -4.73 log M
SMILES = CCCCNCCc1c[nH]c2cccc(O)c12.O=C(O)/C=C/C(=O)O; system = C57BL/6J mice; setting = subcutaneous, 0.1 mg/kg; scale = relative to: pre-session baseline; quantity = body temperature change; value = 0 ± 0.2 °C
SMILES = Nc1cccc2c1CN(C1CCC(=O)NC1=O)C2=O (stereo not drawn); tested on = human coronavirus OC43; assay = virus-induced cell killing; system = MRC-5; setting = maximum over 10 doses; quantity = maximum inhibition; value = 0%
SMILES = C=CCNCCc1c[nH]c2cccc(O)c12.C=CCNCCc1c[nH]c2cccc(O)c12.O=C(O)/C=C/C(=O)O; system = C57BL/6J mice; setting = subcutaneous, 1 mg/kg; scale = relative to: pre-session baseline; quantity = body temperature change; value = 0.1 ± 0.2 °C
SMILES = CCCCC1(CCCC)CN(c2ccccc2)c2cc(SC)c(OCC(=O)N[C@@H](C(=O)NCC(=O)O)c3ccccc3)cc2S(=O)(=O)C1; assay = measured: HDL cholesterol; system = human, serum; setting = 20 mg once daily, day 8; quantity = serum HDL-C; value = 52.4 mg/dL
SMILES = CC(C)N1CCC(NC2CCN(c3cccc(-c4cc5cc(F)ccc5[nH]4)c3)CC2)CC1; tested on = TK-10; quantity = GI50; value = 1710 nM
SMILES = CN(C)CCCn1cc(C2=C(c3c[nH]c4ccccc34)C(=O)NC2=O)c2ccccc21; tested on = human coronavirus OC43; assay = virus-induced cell killing; system = MRC-5; setting = screen; quantity = maximum inhibition; value = 3.38%
SMILES = Nc1ncnc2c1ncn2[C@@H]1O[C@@H]2COP(=O)(O)O[C@H]3[C@@H](O)[C@H](n4cnc5c(=O)[nH]cnc54)O[C@@H]3COP(=O)(O)O[C@H]2[C@H]1O; tested on = Zika virus; assay = downregulated Reactome pathway, RNA sequencing, measured: Extracellular matrix organization (R-HSA-1474244); system = HFF-1; scale = relative to: ZIKV-infected untreated; quantity = fold enrichment; value = 8.1
SMILES = CC(C)NCCc1c[nH]c2cccc(O)c12.O=C(O)/C=C/C(=O)O; system = C57BL/6J mice; setting = subcutaneous, 0.1 mg/kg; scale = relative to: pre-session baseline; quantity = body temperature change; value = -0.3 ± 0.2 °C
SMILES = C[C@]12CC[C@H]3[C@@H](CCC4=CC(=O)CC[C@@H]43)[C@@H]1CC[C@@H]2OC(=O)CCc1ccccc1; tested on = THP-1; assay = pyroptotic LDH release; setting = 2 µM, 40 min, added: LPS then nigericin; quantity = inhibition; value = 7.66%
SMILES = O=C(O)/C=C/C(=O)O.Oc1cccc2[nH]cc(CCNC3CCCCC3)c12; system = C57BL/6J mice; setting = subcutaneous, 0.03 mg/kg; scale = relative to: pre-session baseline; quantity = body temperature change; value = -0.1 ± 0.1 °C
SMILES = CC[C@H](C)[C@@H]1NC(=O)[C@H](CO)NC(=O)[C@@H]2CCCN2C(=O)[C@@H](NC(=O)CN)CSSC[C@@H]2NC(=O)CNC(=O)[C@H](C)NC(=O)[C@H](CC(C)C)NC(=O)[C@@H]3CSSC[C@@H](C(=O)NCC(=O)O)NC(=O)[C@H](Cc4ccccc4)NC(=O)CNC(=O)[C@H](CC(N)=O)NC(=O)[C@@H]4CCCN4C(=O)CNC(=O)[C@H](CSSC[C@H](NC(=O)[C@H](CCCNC(=N)N)NC(=O)[C@H](Cc4c[nH]cn4)NC(=O)[C@H](CCCNC(=N)N)NC(=O)[C@H](CCCCN)NC(=O)[C@H](C(C)C)NC(=O)[C@H](CCCNC(=N)N)NC(=O)[C@H](CC(N)=O)NC1=O)C(=O)N[C@@H](CCCCN)C(=O)N[C@@H](CCC(N)=O)C(=O)N[C@@H](CC(=O)O)C(=O)N[C@@H](CO)C(=O)N[C@@H](CC(=O)O)C(=O)N3)NC(=O)[C@H](C(C)C)NC2=O; tested on = HEK293-TB; assay = Wnt signaling; setting = added: exogenous Wnt3a; quantity = IC50; value = > 100 µM
SMILES = c1ccc(Cn2nnc3c(Sc4nc5ccccc5o4)ncnc32)cc1; tested on = human coronavirus OC43; assay = virus-induced cell killing; system = MRC-5; setting = screen; quantity = maximum inhibition; value = 13.5%
SMILES = C[C@]12CC[C@H]3[C@@H](CC=C4CC(O)CC[C@@]43CO)[C@@H]1CCC2O (stereo partly drawn); system = GAN diet MASH rats; setting = ip, 20 mg/kg, two weeks; scale = relative to: GAN vehicle; quantity = plasma NEFA level; value = decreased
SMILES = COc1ccc(CCC2CCCC(CCc3ccc(OC)cc3)N2C[C@@H](O)CO)cc1.Cl (stereo in doubt); assay = methamphetamine-evoked dopamine release; system = rat striatal slices; setting = 10 µM, added: methamphetamine 5 µM; quantity = time of significant inhibition; value = 50 to 55 min
SMILES = CC[C@H](C)[C@@H]1NC(=O)[C@@H]2CCCN2C(=O)[C@H](CC(C)C)NC(=O)[C@H](CC(C)C)NC(=O)CNC(=O)[C@@H](NC(=O)[C@@H](NC(=O)[C@H](CC(=O)O)NC(=O)CNC(=O)[C@@H](NC(=O)[C@H](C)NC(=O)CNC(=O)[C@H](CCCCN)NC(=O)[C@H](CC(C)C)NC(=O)[C@H](CC(C)C)NC(=O)[C@H](CCCCN)NC(=O)CNC(=O)[C@@H](NC(=O)[C@@H](N)CC(C)C)C(C)C)C(C)C)C(C)C)CSSC[C@@H](C(=O)O)NC1=O; assay = RNA-seq, measured: Mei4; system = mouse, traumatic brain injury model, frontal cortex and hippocampus; setting = dose not given; scale = relative to: TBI alone; quantity = log2 fold change; value = 1.52

Excerpt of the above:
SMILES = c1ccc(Cn2nnc3c(Sc4nc5ccccc5o4)ncnc32)cc1; tested on = human coronavirus OC43; assay = virus-induced cell killing; system = MRC-5; setting = screen; quantity = maximum inhibition; value = 13.5%
SMILES = C[C@]12CC[C@H]3[C@@H](CC=C4CC(O)CC[C@@]43CO)[C@@H]1CCC2O (stereo partly drawn); system = GAN diet MASH rats; setting = ip, 20 mg/kg, two weeks; scale = relative to: GAN vehicle; quantity = plasma NEFA level; value = decreased
SMILES = COc1ccc(CCC2CCCC(CCc3ccc(OC)cc3)N2C[C@@H](O)CO)cc1.Cl (stereo in doubt); assay = methamphetamine-evoked dopamine release; system = rat striatal slices; setting = 10 µM, added: methamphetamine 5 µM; quantity = time of significant inhibition; value = 50 to 55 min
